# Published values pooled from the literature.
# Compare with care: the assays were run in different laboratories. ± gives the spread as reported.
SMILES,tested on,assay,test system,conditions,scale,endpoint,value
CCCCCCCCC(=O)NCc1ccc(O)c(OC)c1,mAb 6-AT6,"antibody binding, indirect competitive ELISA",,together with: coating antigen 4-OVA,,IC50,> 4 µg/mL
CC(C)CC(O)(CC(C)C)c1cn(C(=O)N2CCCC2)nn1,mouse T-cells,"SILAC proteomics, refers to: NDRG1",,"1 nM, 6 h, unit not given",baseline: DMSO,protein level,0.98 ± 0.01
C=CCc1ccc(OCC=C(C)C)c(OC)c1,Spodoptera frugiperda,,,"topical, larvae",,LD50,< 1000 mg/kg
CCCCCCCCCCOCc1cn(CC2=CC[C@@H]3C(C(=O)OC)=CO[C@@H](O)[C@H]23)nn1,SK-N-SH,"neuroprotection, MTT",,"0.15 µM, 24 h, together with: 250 µM H2O2",,viability,58.2 ± 0.3%
C=CCO[C@H]1[C@H](O)[C@@H](N)[C@@H](O[C@H]2[C@H](O[C@@H]3O[C@H](CO)[C@@H](O[C@H]4O[C@@H](CN)[C@@H](O)[C@H](O)[C@H]4N)[C@H]3O)[C@@H](O)[C@H](N)C[C@@H]2N)O[C@@H]1CO,Mycobacterium smegmatis ribosome A1408G,"translation, cell-free luciferase synthesis",,,,IC50,12.3 ± 1.57 µg/mL
C=CCCCCCCCCCOCc1cn(CC2=CC[C@@H]3C(C(=O)OC)=CO[C@@H](OC(C)=O)[C@H]23)nn1,SK-N-SH,"neuroprotection, MTT",,"0.3 µM, 24 h, together with: 250 µM H2O2",,viability,69.2 ± 0.4%
CC[C@H](C)[C@H](NC(=O)[C@H](CCCCN)NC(=O)[C@H](CCCCN)NC(=O)[C@H](C)NC(=O)[C@@H](NC(=O)[C@H](C)NC(=O)[C@H](CC(C)C)NC(=O)[C@H](CC(C)C)NC(=O)[C@H](C)NC(=O)[C@H](CCCCN)NC(=O)[C@H](CC(C)C)NC(=O)[C@H](CC(N)=O)NC(=O)[C@@H](N)CC(C)C)C(C)C)C(=O)N[C@@H](CC(C)C)C(N)=O,H157,MTT,,24 h,,IC50,13.6 µM
CC(C)C[C@H](NC(=O)[C@H](C)NC(=O)CNC(=O)[C@H](C)NC(=O)CNC(=O)[C@H](Cc1c[nH]cn1)NC(=O)[C@H](CCCCN)NC(=O)[C@H](CC(C)C)NC(=O)[C@H](C)NC(=O)[C@H](CCCCN)NC(=O)[C@H](CCCNC(=N)N)NC(=O)[C@@H](NC(=O)[C@H](CC(C)C)NC(=O)[C@H](CCCCN)NC(=O)[C@H](CCCCN)NC(=O)[C@H](CC(C)C)NC(=O)[C@H](CCCCN)NC(=O)[C@H](CCCCN)NC(=O)[C@H](CCCNC(=N)N)NC(=O)[C@H](Cc1c[nH]c2ccccc12)NC(=O)[C@H](CCCCN)NC(=O)[C@H](CCCNC(=N)N)NC(=O)[C@@H](N)CCCCN)C(C)C)C(=O)N[C@@H](CC(C)C)C(=O)N[C@@H](CO)C(N)=O,,electronic von Frey,"male C57BL/6J mice, ipsilateral paw","intraplantar, 10 µL of 1.2 mM",,duration of mechanical hypersensitivity,> 60 min
COC(=O)C1=CO[C@@H](O)[C@@H]2C(Cn3cc(C4(O)CCCCC4)nn3)=CC[C@H]12,SK-N-SH,"neuroprotection, MTT",,"0.3 µM, 24 h, together with: 250 µM H2O2",,viability,79.2 ± 1%
CSC(=NNC(=O)c1ccc([N+](=O)[O-])cc1)SC,Mycobacterium,,Phlei,,,MIC,100 µg/mL
CC1OCC2OC(OC3C(N)CC(N)C(O)C3OC3OC(CO)C(OC4OC(CN)C(O)C(O)C4N)C3O)C(N)C(O)C2O1 (stereo not shown),Mycobacterium smegmatis ribosome A1408G,"translation, cell-free luciferase synthesis",,,,IC50,5.42 ± 1.23 µg/mL
COC(=O)C1=CO[C@@H](O)[C@@H]2C(Cn3cc(C4(O)CCCC4)nn3)=CC[C@H]12,SK-N-SH,"neuroprotection, MTT",,"0.075 µM, 24 h, together with: 250 µM H2O2",,viability,75 ± 2.5%
CSCC[C@@H]1NC(=O)[C@H](CCCNC(=N)N)NC(=O)[C@H](Cc2ccc(O)cc2)NC(=O)[C@@H](NC(=O)[C@H](CCCNC(=N)N)NC(=O)[C@H](CCCCN)NC(=O)[C@H](CC(=O)O)NC(=O)[C@H](C)N)CSSC[C@@H](C(=O)N[C@@H](CCCNC(=N)N)C(=O)N[C@@H](Cc2ccc(O)cc2)C(=O)NCC(=O)O)NC(=O)CNC(=O)[C@H](CCCCN)NC(=O)[C@H](CCCCN)NC(=O)[C@@H]2CSSC[C@H](NC1=O)C(=O)N[C@@H](CCC(N)=O)C(=O)N[C@@H](CCCNC(=N)N)C(=O)N[C@@H](Cc1ccc(O)cc1)C(=O)N[C@@H](Cc1c[nH]cn1)C(=O)N[C@@H](CCC(N)=O)C(=O)N[C@@H](CCCNC(=N)N)C(=O)N[C@@H](CCCNC(=N)N)C(=O)N[C@@H](CCC(N)=O)C(=O)N[C@@H](CCCNC(=N)N)C(=O)N[C@@H](CCCNC(=N)N)C(=O)N[C@@H](CCC(N)=O)C(=O)N2,rat Kv1.6,"conductance-voltage relation, electrophysiology",,concentration not given,,V1/2 of activation,12.9 ± 0.9 mV

# Repeated from above:
SMILES,tested on,assay,test system,conditions,scale,endpoint,value
CC[C@H](C)[C@H](NC(=O)[C@H](CCCCN)NC(=O)[C@H](CCCCN)NC(=O)[C@H](C)NC(=O)[C@@H](NC(=O)[C@H](C)NC(=O)[C@H](CC(C)C)NC(=O)[C@H](CC(C)C)NC(=O)[C@H](C)NC(=O)[C@H](CCCCN)NC(=O)[C@H](CC(C)C)NC(=O)[C@H](CC(N)=O)NC(=O)[C@@H](N)CC(C)C)C(C)C)C(=O)N[C@@H](CC(C)C)C(N)=O,H157,MTT,,24 h,,IC50,13.6 µM
CC(C)C[C@H](NC(=O)[C@H](C)NC(=O)CNC(=O)[C@H](C)NC(=O)CNC(=O)[C@H](Cc1c[nH]cn1)NC(=O)[C@H](CCCCN)NC(=O)[C@H](CC(C)C)NC(=O)[C@H](C)NC(=O)[C@H](CCCCN)NC(=O)[C@H](CCCNC(=N)N)NC(=O)[C@@H](NC(=O)[C@H](CC(C)C)NC(=O)[C@H](CCCCN)NC(=O)[C@H](CCCCN)NC(=O)[C@H](CC(C)C)NC(=O)[C@H](CCCCN)NC(=O)[C@H](CCCCN)NC(=O)[C@H](CCCNC(=N)N)NC(=O)[C@H](Cc1c[nH]c2ccccc12)NC(=O)[C@H](CCCCN)NC(=O)[C@H](CCCNC(=N)N)NC(=O)[C@@H](N)CCCCN)C(C)C)C(=O)N[C@@H](CC(C)C)C(=O)N[C@@H](CO)C(N)=O,,electronic von Frey,"male C57BL/6J mice, ipsilateral paw","intraplantar, 10 µL of 1.2 mM",,duration of mechanical hypersensitivity,> 60 min
